Measured values gathered from unrelated publications.
Each line is one published result; not all experiments were run side by side. Numbers after ± are the reported error.

Under “V1/2 of fast inactivation”, `COC[C@@H](NC(C)=O)C(=O)NCc1ccc(OCc2ccc(Cl)cc2)cc1` is recorded as -57.9 ± 0.7 mV (voltage-gated sodium channel; whole-cell patch clamp; rat embryonic cortical neurons; 10 µM).
With `CC(C)C[C@H](NC(=O)[C@@H](N)CCCNC(=N)N)C(=O)N[C@@H](CC(N)=O)C(=O)N[C@@H](CO)C(=O)N[C@@H](C)C(=O)N[C@@H](CO)C(=O)N[C@@H](CCCNC(=N)N)C(=O)N[C@H](C(=O)N[C@@H](C)C(=O)N[C@@H](Cc1c[nH]cn1)C(=O)NCC(=O)N[C@@H](Cc1ccc(O)cc1)C(N)=O)C(C)C` the EC50 was 10 µM (ATRP receptor 2 (Aplysia californica); IP1 accumulation, agonist).
For `CCCCCCCC(=O)N[C@@H](CCCCNS(=O)(=O)c1cccc2c(N(C)C)cccc12)C(=O)N[C@H](C(=O)N[C@@H](CCN)C(=O)N[C@H]1CCNC(=O)[C@H]([C@@H](C)O)NC(=O)[C@H](CCN)NC(=O)[C@H](CCN)NC(=O)[C@H](CC(C)C)NC(=O)[C@@H](Cc2ccccc2)NC(=O)[C@H](CCN)NC1=O)[C@@H](C)O`, “ΔH, second site” read -10 ± 2.7 kcal/mol (LPS, Escherichia coli; ITC; pH 7.0, 37 °C).
For `COCO[C@H]1[C@H](O)[C@@H](N)[C@@H](O[C@H]2[C@H](O[C@@H]3O[C@H](CO)[C@@H](O[C@H]4O[C@@H](CN)[C@@H](O)[C@H](O)[C@H]4N)[C@H]3O)[C@@H](O)[C@H](N)C[C@@H]2N)O[C@@H]1CO`, the IC50 was 89.8 ± 4.87 µg/mL (ribosome with human cytosolic A site; luciferase translation, cell-free translation).
With `CC[C@H](CO)Nc1nc(NCc2ccc(C)s2)n2ncc(C(C)C)c2n1` the EC50 was 2.49 µM (Cav2.1 calcium channel; tail current integral, whole-cell patch clamp; HEK293 transfected with Cav2.1).
`CCCCCO[C@H]1[C@H](O)[C@@H](N)[C@@H](O[C@H]2[C@H](O[C@@H]3O[C@H](CO)[C@@H](O[C@H]4O[C@@H](CN)[C@@H](O)[C@H](O)[C@H]4N)[C@H]3O)[C@@H](O)[C@H](N)C[C@@H]2N)O[C@@H]1CO` gave an IC50 of 92.3 ± 9.2 µg/mL (ribosome with human cytosolic A site; luciferase translation, cell-free translation).
`CCCCCCCCC(=O)NCc1ccc(O)c(OC)c1` has an IC50 of 0.0083 µg/mL (mAb 5-3H1; antibody binding, indirect competitive ELISA; added: coating antigen 2-OVA).
For `NC[C@@H]1O[C@H](O[C@H]2[C@@H](O)[C@H](O[C@@H]3[C@@H](O)[C@H](N)C[C@H](N)[C@H]3O[C@H]3O[C@H](CO)[C@@H](OCCCO)[C@H](O)[C@H]3N)O[C@@H]2CO)[C@H](N)[C@@H](O)[C@@H]1O`, the IC50 was greater than 700 µg/mL (ribosome with human cytosolic A site; luciferase translation, cell-free translation).
`COC[C@@H](NC(C)=O)C(=O)NCc1ccc(OCc2ccc(OC(F)(F)F)cc2)cc1` — result for “V1/2 of fast inactivation”: -58.4 ± 1 mV (voltage-gated sodium channel; whole-cell patch clamp; rat embryonic cortical neurons; 10 µM).
`COCOC[C@H]1O[C@H](O[C@H]2[C@H](O[C@@H]3O[C@H](CO)[C@@H](O[C@H]4O[C@@H](CN)[C@@H](O)[C@H](O)[C@H]4N)[C@H]3O)[C@@H](O)[C@H](N)C[C@@H]2N)[C@H](N)[C@@H](O)[C@@H]1OCOC` gave an IC50 of 10.9 ± 0.53 µg/mL (Mycobacterium smegmatis ribosome wild type; translation, cell-free luciferase synthesis).
`CC[C@H](C)[C@H](N)C(=O)N[C@@H](CC(N)=O)C(=O)N[C@@H](CCC(=O)O)C(=O)N[C@@H](CC(=O)O)C(=O)N1CCC[C@H]1C(=O)NCC(=O)N[C@@H](CC(N)=O)C(=O)N[C@@H](CS)C(=O)N[C@@H](CCC(=O)O)C(=O)NCC(=O)N[C@H](C(=O)N[C@@H](CCCCN)C(=O)N[C@@H](CCCNC(=N)N)C(=O)N[C@H](C(=O)N[C@@H](CC(C)C)C(=O)N[C@@H](CO)C(=O)N[C@@H](Cc1ccccc1)C(=O)N[C@@H](CO)C(=O)N[C@@H](CC(C)C)C(=O)N[C@@H](CCCNC(=N)N)C(=O)N[C@@H](CO)C(=O)NCC(=O)N[C@@H](CCCNC(=N)N)C(=O)N[C@H](C(=O)N[C@@H](CO)C(=O)NCC(=O)N[C@@H](CCCNC(=N)N)C(=O)N[C@@H](CC(N)=O)C(=O)N[C@@H](Cc1c[nH]c2ccccc12)C(=O)N[C@@H](CCCCN)C(=O)N[C@@H](CC(N)=O)C(=O)N[C@@H](Cc1ccccc1)C(=O)N[C@@H](C)C(=O)N[C@@H](CC(C)C)C(=O)N[C@H](C(=O)N1CCC[C@H]1C(=O)N[C@@H](CC(C)C)C(=O)N[C@@H](CC(C)C)C(=O)N[C@@H](CCCNC(=N)N)C(=O)N[C@@H](CC(=O)O)C(=O)N[C@@H](C)C(=O)N[C@@H](CO)C(=O)N[C@H](C(=O)N[C@@H](CCCNC(=N)N)C(=O)O)[C@@H](C)O)C(C)C)C(C)C)[C@@H](C)O)C(C)C` — result for “tryptophan emission maximum”: 330 nm (calmodulin; 10 µM, pH 7.5, added: calmodulin 10 µM, CaCl2 1 mM).
Under “unbinding time constant”, `C=CCn1cnc2c(NCc3ccc(C)s3)nc(N[C@H](CC)CO)nc21` is recorded as 0.99 s (Cav2.1 calcium channel; perforated patch clamp; HEK293 transfected; 50 µM, 100 ms application, at -100 mV).
The EC50 of `CC[C@H](C)[C@@H]1NC(=O)[C@H](Cc2ccc(O)cc2)NC(=O)[C@@H](N)CSSC[C@@H](C(=O)N2CCC[C@H]2C(=O)N2CCC[C@H]2C(=O)NCC(N)=O)NC(=O)[C@H](CC(N)=O)NC(=O)[C@H](CCC(N)=O)NC1=O` is reported as 0.00468 µM (oxytocin receptor (titi monkey); Ca2+ mobilisation, agonist; CHO cells).
The IC50 of `CO[C@H]1[C@H](O)[C@@H](N)[C@@H](O[C@H]2[C@H](O[C@@H]3O[C@H](CO)[C@@H](O[C@H]4O[C@@H](CN)[C@@H](O)[C@H](O)[C@H]4N)[C@H]3O)[C@@H](O)[C@H](N)C[C@@H]2N)O[C@@H]1CO` is reported as 128 ± 27.6 µg/mL (ribosome with human cytosolic A site; luciferase translation, cell-free translation).
With `CCCc1cnn2c(NCc3ccc(C)s3)nc(N[C@H](CC)CO)nc12` the EC50 was 11.4 µM (Cav2.1 calcium channel; tail current integral, whole-cell patch clamp; HEK293 transfected with Cav2.1).
For `COc1ccc2ccc3c(c2c1)C=[N+]1C2CCCCC2[N+]2=Cc4cccc(OC)c4[O][Au-]21[O]3.F[P-](F)(F)(F)(F)F` (stereo not shown), the IC50 was 22.6 µM (Klebsiella pneumoniae thioredoxin reductase; inhibitor; carbapenem-resistant; added: DTNB).
For `COc1ccc(CCN2CCC[C@H](CN3CCc4cc(OC)c(OC)cc4CC3=O)C2)cc1OC`, inhibition read “inhibited” (HCN channel mouse; Ih current; VTA dopamine neurons; concentration not given).
With `C[C@H](NC(=O)[C@@H]1CCCN1C(=O)[C@H](Cc1ccc(O)cc1)NC(=O)CNC(=O)[C@H](CO)NC(=O)[C@H](Cc1ccccc1)NC(=O)[C@@H](N)[C@@H](C)O)C(=O)N[C@@H](Cc1ccccc1)C(=O)O` the outward current was 31 ± 8.3 pA (mu opioid receptor, rat; ion current, agonist, whole-cell patch clamp; Sprague Dawley rat, supraoptic nucleus neurons, brain slice; 100 nM, after CTOP washout).
For `CCO[C@H]1[C@H](O)[C@@H](N)[C@@H](O[C@H]2[C@H](O[C@@H]3O[C@H](CO)[C@@H](O[C@H]4O[C@@H](CN)[C@@H](O)[C@H](O)[C@H]4N)[C@H]3O)[C@@H](O)[C@H](N)C[C@@H]2N)O[C@@H]1CO`, the IC50 was 0.08 ± 0.03 µg/mL (Mycobacterium smegmatis ribosome wild type; translation, cell-free luciferase synthesis).
`Cc1cn(C2CCC(OC(C(=O)O)P(=O)(O)O)C2)c(=O)[nH]c1=O` (racemic) gave a fold resistance of 3 fold (HIV-1 reverse transcriptase M184V/E138K; enzyme activity, inhibitor; added: poly(rA)·dT, [3H]dTTP; reference: mutant over wild type).
With `NC[C@@H]1O[C@H](O[C@H]2[C@@H](O)[C@H](O[C@@H]3[C@@H](O)[C@H](N)C[C@H](N)[C@H]3O[C@H]3O[C@H](CO)[C@@H](OCCO)[C@H](O)[C@H]3N)O[C@@H]2CO)[C@H](N)[C@@H](O)[C@@H]1O` the IC50 was 74.4 ± 11.9 µg/mL (ribosome with human cytosolic A site; luciferase translation, cell-free translation).
With `COc1ccc2ccc3c(c2c1)C=[N+]1C2CCCCC2[N+]2=Cc4ccc(OCCN5CCCCC5)cc4[O][Au-]21[O]3.F[P-](F)(F)(F)(F)F` (stereo not shown) the IC50 was 5.39 µM (Klebsiella pneumoniae glutathione reductase; inhibitor; carbapenem-resistant; added: GSSG and NADPH).

Excerpt of the above:
With `CC[C@H](CO)Nc1nc(NCc2ccc(C)s2)n2ncc(C(C)C)c2n1` the EC50 was 2.49 µM (Cav2.1 calcium channel; tail current integral, whole-cell patch clamp; HEK293 transfected with Cav2.1).
Under “V1/2 of fast inactivation”, `COC[C@@H](NC(C)=O)C(=O)NCc1ccc(OCc2ccc(Cl)cc2)cc1` is recorded as -57.9 ± 0.7 mV (voltage-gated sodium channel; whole-cell patch clamp; rat embryonic cortical neurons; 10 µM).
`CC[C@H](C)[C@H](N)C(=O)N[C@@H](CC(N)=O)C(=O)N[C@@H](CCC(=O)O)C(=O)N[C@@H](CC(=O)O)C(=O)N1CCC[C@H]1C(=O)NCC(=O)N[C@@H](CC(N)=O)C(=O)N[C@@H](CS)C(=O)N[C@@H](CCC(=O)O)C(=O)NCC(=O)N[C@H](C(=O)N[C@@H](CCCCN)C(=O)N[C@@H](CCCNC(=N)N)C(=O)N[C@H](C(=O)N[C@@H](CC(C)C)C(=O)N[C@@H](CO)C(=O)N[C@@H](Cc1ccccc1)C(=O)N[C@@H](CO)C(=O)N[C@@H](CC(C)C)C(=O)N[C@@H](CCCNC(=N)N)C(=O)N[C@@H](CO)C(=O)NCC(=O)N[C@@H](CCCNC(=N)N)C(=O)N[C@H](C(=O)N[C@@H](CO)C(=O)NCC(=O)N[C@@H](CCCNC(=N)N)C(=O)N[C@@H](CC(N)=O)C(=O)N[C@@H](Cc1c[nH]c2ccccc12)C(=O)N[C@@H](CCCCN)C(=O)N[C@@H](CC(N)=O)C(=O)N[C@@H](Cc1ccccc1)C(=O)N[C@@H](C)C(=O)N[C@@H](CC(C)C)C(=O)N[C@H](C(=O)N1CCC[C@H]1C(=O)N[C@@H](CC(C)C)C(=O)N[C@@H](CC(C)C)C(=O)N[C@@H](CCCNC(=N)N)C(=O)N[C@@H](CC(=O)O)C(=O)N[C@@H](C)C(=O)N[C@@H](CO)C(=O)N[C@H](C(=O)N[C@@H](CCCNC(=N)N)C(=O)O)[C@@H](C)O)C(C)C)C(C)C)[C@@H](C)O)C(C)C` — result for “tryptophan emission maximum”: 330 nm (calmodulin; 10 µM, pH 7.5, added: calmodulin 10 µM, CaCl2 1 mM).
